Measured values from different studies.
Each numbered part is a random draw from the data of one study; scales do not carry over between parts. ± marks the error that the study gave.
Sequence of UniProt Q15208 (whole entry, looked up): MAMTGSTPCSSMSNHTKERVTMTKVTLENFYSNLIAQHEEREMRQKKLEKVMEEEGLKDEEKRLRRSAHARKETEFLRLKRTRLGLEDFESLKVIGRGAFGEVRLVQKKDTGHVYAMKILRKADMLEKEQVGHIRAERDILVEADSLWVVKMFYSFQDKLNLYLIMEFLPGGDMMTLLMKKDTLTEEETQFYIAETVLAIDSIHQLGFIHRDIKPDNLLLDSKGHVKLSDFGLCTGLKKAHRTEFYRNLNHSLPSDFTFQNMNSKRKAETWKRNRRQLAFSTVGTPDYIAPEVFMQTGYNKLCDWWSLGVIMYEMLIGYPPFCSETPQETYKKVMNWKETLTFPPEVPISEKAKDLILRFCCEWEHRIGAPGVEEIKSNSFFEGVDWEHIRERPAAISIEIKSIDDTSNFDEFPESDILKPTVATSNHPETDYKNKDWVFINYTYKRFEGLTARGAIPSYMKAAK
Sequence of UniProt Q8IVH8 (whole entry, looked up): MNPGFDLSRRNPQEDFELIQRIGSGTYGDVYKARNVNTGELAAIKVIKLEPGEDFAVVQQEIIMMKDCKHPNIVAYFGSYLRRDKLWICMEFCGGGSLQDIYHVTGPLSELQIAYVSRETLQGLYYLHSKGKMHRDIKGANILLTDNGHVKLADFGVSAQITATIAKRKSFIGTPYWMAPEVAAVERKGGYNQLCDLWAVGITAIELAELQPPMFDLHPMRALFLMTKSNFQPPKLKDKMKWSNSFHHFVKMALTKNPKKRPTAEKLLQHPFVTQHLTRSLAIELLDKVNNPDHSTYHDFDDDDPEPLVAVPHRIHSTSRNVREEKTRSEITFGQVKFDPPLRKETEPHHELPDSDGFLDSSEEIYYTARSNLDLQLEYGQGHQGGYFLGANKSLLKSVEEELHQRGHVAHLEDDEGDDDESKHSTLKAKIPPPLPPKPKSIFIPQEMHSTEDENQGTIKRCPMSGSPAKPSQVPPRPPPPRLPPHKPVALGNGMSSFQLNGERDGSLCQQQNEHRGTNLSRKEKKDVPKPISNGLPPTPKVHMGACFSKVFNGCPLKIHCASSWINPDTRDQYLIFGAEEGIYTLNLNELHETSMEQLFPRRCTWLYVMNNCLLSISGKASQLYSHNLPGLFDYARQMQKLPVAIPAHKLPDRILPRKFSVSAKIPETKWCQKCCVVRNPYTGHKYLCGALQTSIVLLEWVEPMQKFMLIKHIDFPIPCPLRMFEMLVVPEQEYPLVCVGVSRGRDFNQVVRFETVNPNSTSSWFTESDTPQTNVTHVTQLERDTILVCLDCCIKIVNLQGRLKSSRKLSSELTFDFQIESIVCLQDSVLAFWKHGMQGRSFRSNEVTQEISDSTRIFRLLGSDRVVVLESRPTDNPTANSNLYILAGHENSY
Sequence of UniProt P30530 (whole entry, looked up): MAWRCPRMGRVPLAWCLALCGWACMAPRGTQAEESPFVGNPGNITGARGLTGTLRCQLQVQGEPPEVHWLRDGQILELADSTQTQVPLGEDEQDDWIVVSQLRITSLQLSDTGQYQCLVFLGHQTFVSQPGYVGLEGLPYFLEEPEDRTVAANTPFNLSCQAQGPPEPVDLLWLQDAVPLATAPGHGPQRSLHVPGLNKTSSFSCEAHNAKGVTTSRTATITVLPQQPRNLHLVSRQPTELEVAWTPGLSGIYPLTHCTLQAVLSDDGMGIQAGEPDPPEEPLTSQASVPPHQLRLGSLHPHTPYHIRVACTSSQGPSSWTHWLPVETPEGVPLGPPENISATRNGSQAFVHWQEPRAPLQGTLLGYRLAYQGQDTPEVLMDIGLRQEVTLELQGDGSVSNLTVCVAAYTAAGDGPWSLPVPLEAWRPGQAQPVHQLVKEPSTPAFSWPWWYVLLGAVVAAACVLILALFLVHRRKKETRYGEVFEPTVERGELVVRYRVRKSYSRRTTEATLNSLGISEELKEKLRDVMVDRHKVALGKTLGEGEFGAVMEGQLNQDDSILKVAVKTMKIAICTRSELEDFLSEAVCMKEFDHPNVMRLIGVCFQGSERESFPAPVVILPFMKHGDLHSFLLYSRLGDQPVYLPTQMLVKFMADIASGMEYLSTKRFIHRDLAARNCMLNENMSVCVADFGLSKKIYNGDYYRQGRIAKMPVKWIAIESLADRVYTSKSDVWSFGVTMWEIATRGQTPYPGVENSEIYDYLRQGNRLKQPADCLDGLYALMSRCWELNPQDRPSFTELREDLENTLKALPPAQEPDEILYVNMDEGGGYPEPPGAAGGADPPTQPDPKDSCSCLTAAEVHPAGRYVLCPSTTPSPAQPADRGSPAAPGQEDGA
Sequence of UniProt P10721 (whole entry, unmodified, looked up): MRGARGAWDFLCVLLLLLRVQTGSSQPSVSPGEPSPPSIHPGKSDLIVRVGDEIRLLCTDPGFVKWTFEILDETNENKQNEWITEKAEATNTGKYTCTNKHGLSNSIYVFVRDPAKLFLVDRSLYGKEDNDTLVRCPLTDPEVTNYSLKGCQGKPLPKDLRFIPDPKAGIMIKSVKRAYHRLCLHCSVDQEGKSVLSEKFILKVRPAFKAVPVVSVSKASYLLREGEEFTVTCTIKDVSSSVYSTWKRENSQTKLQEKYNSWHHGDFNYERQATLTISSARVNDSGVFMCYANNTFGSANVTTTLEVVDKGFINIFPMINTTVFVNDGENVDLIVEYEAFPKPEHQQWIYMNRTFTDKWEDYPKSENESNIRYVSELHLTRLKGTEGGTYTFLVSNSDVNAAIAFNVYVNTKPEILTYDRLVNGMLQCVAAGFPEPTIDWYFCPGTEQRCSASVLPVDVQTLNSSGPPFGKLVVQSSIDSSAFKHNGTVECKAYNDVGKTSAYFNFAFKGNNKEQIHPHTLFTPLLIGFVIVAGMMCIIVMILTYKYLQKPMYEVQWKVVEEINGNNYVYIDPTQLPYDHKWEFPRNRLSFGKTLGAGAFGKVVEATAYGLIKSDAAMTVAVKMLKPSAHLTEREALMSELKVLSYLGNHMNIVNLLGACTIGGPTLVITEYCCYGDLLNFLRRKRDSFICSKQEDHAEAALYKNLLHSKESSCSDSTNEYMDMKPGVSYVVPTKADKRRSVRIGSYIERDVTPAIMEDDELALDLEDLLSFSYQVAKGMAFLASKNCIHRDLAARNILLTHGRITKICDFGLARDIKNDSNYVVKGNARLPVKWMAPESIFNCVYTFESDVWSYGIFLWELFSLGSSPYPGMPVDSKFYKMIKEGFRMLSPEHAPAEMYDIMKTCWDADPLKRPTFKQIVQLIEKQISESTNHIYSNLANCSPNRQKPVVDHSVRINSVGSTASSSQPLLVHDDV

Block 1
SMILES: CC[C@@]1(c2cccc(C(F)(F)F)c2)C2=C(Nc3n[nH]cc31)[C@H](F)C(C)(C)CC2=O (single isomer, unassigned)
Tested at: 1 µM
It gave 96% for remaining binding (Tyrosine-protein kinase Srms (SRMS, Homo sapiens, UniProt Q9H3Y6); kinase binding, KINOMEscan; reference: DMSO control).
Serine/threonine-protein kinase PRP4 homolog (PRPF4B, Homo sapiens, UniProt Q13523); kinase binding, KINOMEscan; reference: DMSO control — remaining binding: 77%.
MAP kinase-activated protein kinase 5 (MAPKAPK5, Homo sapiens, UniProt Q8IW41); kinase binding, KINOMEscan; reference: DMSO control — remaining binding: 100%.
For Cyclin-G-associated kinase (GAK, Homo sapiens, UniProt O14976); binding, competition with immobilised ligand: remaining binding read 65%.
The remaining binding was 82% (Epidermal growth factor receptor (EGFR, Homo sapiens, UniProt P00533, del747-752/P753S); kinase binding, KINOMEscan; reference: DMSO control).
Mitogen-activated protein kinase kinase kinase 13 (MAP3K13, Homo sapiens, UniProt O43283); binding, competition with immobilised ligand — remaining binding: 100%.
It gave 91% for remaining binding (Mitogen-activated protein kinase kinase kinase kinase 3 (MAP4K3, Homo sapiens, UniProt Q8IVH8); kinase binding, KINOMEscan; reference: DMSO control).
It gave 95% for remaining binding (Epidermal growth factor receptor (EGFR, Homo sapiens, UniProt P00533, L858R/T790M); binding, competition with immobilised ligand).
Beta-adrenergic receptor kinase 1 (GRK2, Homo sapiens, UniProt P25098); binding, competition with immobilised ligand — remaining binding: 100%.
For TGF-beta receptor type-1 (TGFBR1, Homo sapiens, UniProt P36897); kinase binding, KINOMEscan; reference: DMSO control: remaining binding read 80%.
For ALK tyrosine kinase receptor (ALK, Homo sapiens, UniProt Q9UM73, L1196M); binding, competition with immobilised ligand: remaining binding read 63%.
It gave 49% for remaining binding (Serine/threonine-protein kinase 38 (STK38, Homo sapiens, UniProt Q15208); binding, competition with immobilised ligand).
For Ribosomal protein S6 kinase alpha-1, C-terminal kinase domain (RPS6KA1, Homo sapiens, UniProt Q15418); kinase binding, KINOMEscan; reference: DMSO control: remaining binding read 86%.
For Mast/stem cell growth factor receptor Kit (KIT, Homo sapiens, UniProt P10721, L576P); binding, competition with immobilised ligand: remaining binding read 89%.
The remaining binding was 89% (Tyrosine-protein kinase receptor UFO (AXL, Homo sapiens, UniProt P30530); binding, competition with immobilised ligand).
Serine/threonine-protein kinase Nek9 (NEK9, Homo sapiens, UniProt Q8TD19); kinase binding, KINOMEscan; reference: DMSO control — remaining binding: 100%.

Block 2
SMILES: C[C@@H]1CN(c2ccc(-c3cc(C(=O)NCCOCCOCCOCCOCCNC(=O)Cn4cc(-c5[nH]cc(C(=O)N[C@@H](CC(N)=O)c6ccc(F)c(Cl)c6)c5-c5ccc(Cl)cc5F)cn4)ccc3F)cc2NC(=O)c2c[nH]c(=O)cc2C(F)(F)F)C[C@H](C)N1C
Effect on: thermal unfolding
Method: differential scanning fluorimetry
Tested at: 5.5 µM
Reading: higher = more unfolded
DCAF1: DDB1- and CUL4-associated factor 1 (DCAF1, Homo sapiens, UniProt Q9Y4B6)
Sequence of UniProt Q9Y4B6 (whole entry, looked up): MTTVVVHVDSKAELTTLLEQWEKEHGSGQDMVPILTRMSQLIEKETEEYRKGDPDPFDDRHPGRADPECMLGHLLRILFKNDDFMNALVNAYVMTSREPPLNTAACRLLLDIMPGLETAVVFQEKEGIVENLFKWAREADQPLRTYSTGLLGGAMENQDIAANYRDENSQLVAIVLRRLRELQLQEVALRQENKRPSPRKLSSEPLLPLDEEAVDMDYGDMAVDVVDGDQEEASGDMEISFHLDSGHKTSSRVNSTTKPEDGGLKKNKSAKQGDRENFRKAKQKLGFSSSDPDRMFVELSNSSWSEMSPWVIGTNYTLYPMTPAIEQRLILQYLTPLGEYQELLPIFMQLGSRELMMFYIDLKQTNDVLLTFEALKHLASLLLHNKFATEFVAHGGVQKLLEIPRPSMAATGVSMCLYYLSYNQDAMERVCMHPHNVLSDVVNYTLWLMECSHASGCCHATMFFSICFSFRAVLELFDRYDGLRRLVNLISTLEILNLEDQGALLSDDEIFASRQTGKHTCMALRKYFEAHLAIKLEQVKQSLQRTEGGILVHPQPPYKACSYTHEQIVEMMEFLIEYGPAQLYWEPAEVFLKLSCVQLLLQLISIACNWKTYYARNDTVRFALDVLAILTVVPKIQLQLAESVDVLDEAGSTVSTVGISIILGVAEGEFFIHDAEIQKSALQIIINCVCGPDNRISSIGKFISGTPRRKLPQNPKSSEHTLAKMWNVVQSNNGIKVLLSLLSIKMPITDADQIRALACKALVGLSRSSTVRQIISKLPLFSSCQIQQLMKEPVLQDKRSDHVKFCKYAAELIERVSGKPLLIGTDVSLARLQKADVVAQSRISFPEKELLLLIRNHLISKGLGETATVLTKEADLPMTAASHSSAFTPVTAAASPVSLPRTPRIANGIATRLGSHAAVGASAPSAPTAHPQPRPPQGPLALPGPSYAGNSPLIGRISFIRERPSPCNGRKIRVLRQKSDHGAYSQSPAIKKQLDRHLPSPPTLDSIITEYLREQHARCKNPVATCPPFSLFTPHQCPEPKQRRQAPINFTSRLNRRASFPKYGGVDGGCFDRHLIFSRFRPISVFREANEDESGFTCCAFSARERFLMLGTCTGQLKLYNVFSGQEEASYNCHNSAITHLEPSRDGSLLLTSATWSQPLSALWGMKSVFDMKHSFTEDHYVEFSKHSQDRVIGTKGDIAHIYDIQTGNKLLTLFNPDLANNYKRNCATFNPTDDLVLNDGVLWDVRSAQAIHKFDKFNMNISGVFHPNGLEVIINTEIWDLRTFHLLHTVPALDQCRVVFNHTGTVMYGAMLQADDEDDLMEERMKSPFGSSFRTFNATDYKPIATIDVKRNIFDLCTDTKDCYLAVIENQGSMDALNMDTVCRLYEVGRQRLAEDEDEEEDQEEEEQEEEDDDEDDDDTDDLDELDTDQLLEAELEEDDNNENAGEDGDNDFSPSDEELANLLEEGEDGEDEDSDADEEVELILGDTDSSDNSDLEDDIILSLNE
WDR5: WD repeat-containing protein 5 (WDR5, Homo sapiens, UniProt P61964)
DCAF1; 42.2 °C — “SYPRO Orange fluorescence”: 11100 a.u.
The “SYPRO Orange fluorescence” was 55600 a.u. (DCAF1; 64.81 °C).
The “SYPRO Orange fluorescence” was 54200 a.u. (DCAF1; 70.21 °C).
The “SYPRO Orange fluorescence” was 8530 a.u. (DCAF1; 33.8 °C).
The “SYPRO Orange fluorescence” was 52400 a.u. (DCAF1; 72.01 °C).
It gave 39300 a.u. for “SYPRO Orange fluorescence” (WDR5; 93.81 °C).
For DCAF1; 43.2 °C: “SYPRO Orange fluorescence” read 11500 a.u.
DCAF1; 37.4 °C — “SYPRO Orange fluorescence”: 9490 a.u.
The “SYPRO Orange fluorescence” was 9290 a.u. (WDR5; 73.81 °C).
It gave 50600 a.u. for “SYPRO Orange fluorescence” (DCAF1; 73.81 °C).
The “SYPRO Orange fluorescence” was 32200 a.u. (DCAF1; 58.81 °C).

Block 3
Target: Membrane-associated tyrosine- and threonine-specific cdc2-inhibitory kinase (PKMYT1, Homo sapiens, UniProt Q99640)
Action: degrader
Method: automated immunoblot (Jess)
Cell line: HCC1569
Time: 24 h
Target sequence (Q99640 1-499): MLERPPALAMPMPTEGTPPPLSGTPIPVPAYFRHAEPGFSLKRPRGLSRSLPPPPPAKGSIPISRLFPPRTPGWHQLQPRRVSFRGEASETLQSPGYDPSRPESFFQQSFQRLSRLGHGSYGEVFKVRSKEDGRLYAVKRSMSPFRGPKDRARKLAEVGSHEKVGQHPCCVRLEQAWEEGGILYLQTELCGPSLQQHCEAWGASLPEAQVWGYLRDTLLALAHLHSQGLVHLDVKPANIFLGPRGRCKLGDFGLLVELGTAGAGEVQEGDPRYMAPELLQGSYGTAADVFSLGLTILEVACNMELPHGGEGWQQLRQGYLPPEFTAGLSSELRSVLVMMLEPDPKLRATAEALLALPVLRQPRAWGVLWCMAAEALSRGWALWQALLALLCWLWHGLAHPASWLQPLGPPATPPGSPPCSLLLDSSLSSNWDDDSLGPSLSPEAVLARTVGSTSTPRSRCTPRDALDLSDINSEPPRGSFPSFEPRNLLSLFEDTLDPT
`Cc1ccc(O)c(C)c1-c1cnc2[nH]c(-c3cnc(N4CCC(CN5CCN(c6c(F)cc(NC7CCC(=O)NC7=O)cc6F)CC5)CC4)nc3)cc2c1C#N` (racemic) has a DC50 of 0.3 nM.
`Cc1ccc(O)c(C)c1-c1cnc2[nH]c(-c3cnc(N4CCC5(CC4)CC(N4CCN(c6ccc(N[C@H]7CCC(=O)N(C)C7=O)cc6F)CC4)CO5)nc3)cc2c1C#N` (single isomer, unassigned) gave a DC50 of over 1000 nM.
The DC50 of `Cc1ccc(O)c(C)c1-c1cnc2[nH]c(-c3cnc(N4CCC(CN5CCN(c6ccc7c(c6)CN(C6CCC(=O)NC6=O)C7=O)CC5)CC4)nc3)cc2c1C#N` (centres unmarked) is reported as 0.2 nM.
For `Cc1ccc(O)c(C)c1-c1cnc2[nH]c(-c3cnc(N4CCC(CN5CCN(c6ccc7c(c6F)CN(C6CCC(=O)NC6=O)C7=O)CC5)CC4)nc3)cc2c1C#N` (centres unmarked), the DC50 was 0.3 nM.
`Cc1ccc(O)c(C)c1-c1cnc2[nH]c(-c3cnc(N4CCC5(CC4)CC(CN4CCN(c6ccc(NC7CCC(=O)NC7=O)cc6F)CC4)C5)nc3)cc2c1C#N` (centres unmarked) has a DC50 of 0.6 nM.
`Cc1ccc(O)c(C)c1-c1cnc2[nH]c(-c3cnc(N4CCC(CCN5CCN(c6ccc(NC7CCC(=O)NC7=O)cc6F)CC5)CC4)nc3)cc2c1C#N` (centres unmarked) gave a DC50 of 0.3 nM.
With `Cc1ccc(O)c(C)c1-c1cnc2[nH]c(-c3cnc(N4CCC(CN5CCN(c6ccc(NC7CCC(=O)NC7=O)cc6F)CC5)CC4)nc3)cc2c1C#N` (centres unmarked) the DC50 was 0.6 nM.
`Cc1ccc(O)c(C)c1-c1cnc2[nH]c(-c3cnc(N4CCC(CN5CCN(c6cc7c(cc6F)n(C6CCC(=O)NC6=O)c(=O)n7C)CC5)CC4)nc3)cc2c1C#N` (centres unmarked) gave a DC50 of under 0.1 nM.

Mixed results
The viability of `FC(F)(F)c1ccc(C2=NOC3(NC(c4ccccc4)=NO3)N2c2ccccc2)cc1` (centres unmarked) is reported as over 75% (HEK293-A; cell growth or viability, ATP luminescence; 10 µM, 72 h).
With `CN(C1COC1)C(C)(C)/C=C(\C#N)C(=O)N1CCC[C@H]1Cn1nc(-c2ccc(Oc3ccccc3)cc2F)c2c(N)ncnc21` the residence time was 2640 ± 840 min (Cytoplasmic tyrosine-protein kinase BMX (BMX, Homo sapiens, UniProt P51813); fluorescence competition).
`O=C(Nc1ccccc1)c1cccc(Oc2ccc3nccn3n2)c1` — result for DDR1 autophosphorylation: “no inhibition” (HeLa transfected with DDR1b; receptor autophosphorylation, inhibitor, western blot; concentration not given, 24 h, with: collagen I).

Repeated from above (block 1):
Serine/threonine-protein kinase Nek9 (NEK9, Homo sapiens, UniProt Q8TD19); kinase binding, KINOMEscan; reference: DMSO control — remaining binding: 100%.
The remaining binding was 82% (Epidermal growth factor receptor (EGFR, Homo sapiens, UniProt P00533, del747-752/P753S); kinase binding, KINOMEscan; reference: DMSO control).
For Cyclin-G-associated kinase (GAK, Homo sapiens, UniProt O14976); binding, competition with immobilised ligand: remaining binding read 65%.
For Mast/stem cell growth factor receptor Kit (KIT, Homo sapiens, UniProt P10721, L576P); binding, competition with immobilised ligand: remaining binding read 89%.
For TGF-beta receptor type-1 (TGFBR1, Homo sapiens, UniProt P36897); kinase binding, KINOMEscan; reference: DMSO control: remaining binding read 80%.
